Measurements gathered from unrelated publications.
Lines come from different studies, so protocols differ. Numbers after ± are the reported error. ≈ marks a conversion by molar mass, not a printed value.
Organism: Escherichia coli

Structure (SMILES) | assay | test system | conditions | scale | measurement | value
COc1c(C)c(OCc2ccccc2)c(C)c(OCc2ccccc2)c1C(=O)/C=C/c1ccccc1 | microbial killing, broth dilution | ATCC25922 | – | – | MBC | > 5000 µg/mL
[Cl-].[Cl][Ru-4]123([n+]4ccccc4-c4cccc([n+]41)-c1cccc[n+]12)[n+]1ccc(-c2ccccc2)c2ccc4c(-c5ccccc5)cc[n+]3c4c21 | ICP-MS | – | 20 µM, 24 h | – | cellular uptake | 11.7%
COc1ccc2cc3[n+](cc2c1OC)CCc1cc2c(cc1-3)OCO2.[Cl][Fe-]([Cl])([Cl])[Cl] | – | – | 24 h, 37 °C | – | MBC | > 800 µM
Cc1cc(O)c(=O)c(O)cc1C(=O)C1CC1 | microbial growth, broth dilution | ATCC35218 | – | – | MIC80 | 29.6 µM (≈ 6.52 µg/mL)
OC[C@H]1O[C@@H]2O[C@H]3[C@H](O)[C@@H](O)[C@@H](O[C@H]4[C@H](O)[C@@H](O)[C@@H](O[C@H]5[C@H](O)[C@@H](O)[C@@H](O[C@H]6[C@H](O)[C@@H](O)[C@@H](O[C@H]7[C@H](O)[C@@H](O)[C@@H](O[C@H]1[C@H](O)[C@H]2O)O[C@@H]7CO)O[C@@H]6CO)O[C@@H]5CO)O[C@@H]4CO)O[C@@H]3CO | LuxR reporter, antagonist | DH5α sensor strain | 10 µM, with: OHHL 200 nM | – | inhibition | -1 ± 2%
CC(CCCOC(=O)CCC[N+](C)(C)C)C1CCC2C3CCC4CC(OC(=O)CCC[N+](C)(C)C)CCC4(C)C3CC(OC(=O)CCC[N+](C)(C)C)C12C (stereo not shown) | microbial growth, disc diffusion | ATCC25922 | 15.6 µg/disc, 24 h | – | inhibition zone | 7 mm
Cc1ccnc(-c2cc(C(=O)NCCCCCC(=O)N[C@@H](CCCNC(=N)N)C(=O)N[C@@H](Cc3c[nH]c4ccccc34)C(=O)N[C@@H](CCCNC(=N)N)C(=O)N[C@@H](Cc3c[nH]c4ccccc34)C(=O)N[C@@H](CCCNC(=N)N)C(=O)N[C@@H](Cc3c[nH]c4ccccc34)C(N)=O)ccn2)c1 | – | susceptible | 16 µM, dark | relative to: untreated | reduction in viable count | < 3 log10 CFU
O=C(CCCc1cn(C[C@H]2O[C@@H]3O[C@H]4[C@H](O)[C@@H](O)[C@@H](O[C@H]5[C@H](O)[C@@H](O)[C@@H](O[C@H]6[C@H](O)[C@@H](O)[C@@H](O[C@H]7[C@H](O)[C@@H](O)[C@@H](O[C@H]8[C@H](O)[C@@H](O)[C@@H](O[C@H]9[C@H](O)[C@@H](O)[C@@H](O[C@H]2[C@H](O)[C@H]3O)O[C@@H]9Cn2cc(CCCC(=O)N[C@H]3CCOC3=O)nn2)O[C@@H]8Cn2cc(CCCC(=O)N[C@H]3CCOC3=O)nn2)O[C@@H]7Cn2cc(CCCC(=O)N[C@H]3CCOC3=O)nn2)O[C@@H]6Cn2cc(CCCC(=O)N[C@H]3CCOC3=O)nn2)O[C@@H]5Cn2cc(CCCC(=O)N[C@H]3CCOC3=O)nn2)O[C@@H]4Cn2cc(CCCC(=O)N[C@H]3CCOC3=O)nn2)nn1)N[C@H]1CCOC1=O | LuxR reporter, antagonist | DH5α sensor strain | 10 µM, with: OHHL 200 nM | – | inhibition | 36 ± 6%
CC[C@H](C)[C@H](NC(=O)[C@H](CCCN)NC(=O)[C@H](CC(N)=O)NC(=O)[C@H](Cc1c[nH]c2ccccc12)NC(=O)[C@H](Cc1ccccc1)NC(=O)[C@H](CCCN)NC(=O)[C@H](CCCCNC(=N)N)NC(=O)[C@H](CC(C)C)NC(=O)[C@H](Cc1c[nH]c2ccccc12)NC(=O)[C@H](CCCN)NC(=O)[C@H](CCCCNC(=N)N)NC(=O)[C@H](CC(C)C)NC(=O)CNC(C)=O)C(=O)N[C@@H](CCCN)C(=O)N[C@@H](CCCCNC(=N)N)C(N)=O | – | ATCC 25922 | concentration not given, with: KCl 4.5 mM | relative to: no added salt | MIC fold change | 1 fold
N=C(N)NCCC[C@@H]1NC(=O)[C@H](CCCNC(=N)N)NC(=O)[C@@H](C(c2ccccc2)c2ccccc2)NC(=O)[C@H](Cc2c[nH]c3ccccc23)NC(=O)[C@@H](C(c2ccccc2)c2ccccc2)NC(=O)[C@@H](CCCNC(=N)N)NC(=O)[C@@H](CCCNC(=N)N)NC1=O | – | ATCC BAA-2452 | 2 x MIC, 24 h, preformed biofilm | – | biofilm mass reduction | 63 to 69%
CO[C@@H]1[C@@H](OC)[C@H]2O[C@H]3[C@H](OC)[C@@H](OC)[C@@H](O[C@H]4[C@H](OC)[C@@H](OC)[C@@H](O[C@H]5[C@H](OC)[C@@H](OC)[C@@H](O[C@H]6[C@H](OC)[C@@H](OC)[C@@H](O[C@H]7[C@H](OC)[C@@H](OC)[C@@H](O[C@H]8[C@H](OC)[C@@H](OC)[C@@H](O[C@@H]1[C@@H](Cn1cc(CCCC(=O)N[C@H]9CCOC9=O)nn1)O2)O[C@@H]8Cn1cc(CCCC(=O)N[C@H]2CCOC2=O)nn1)O[C@@H]7Cn1cc(CCCC(=O)N[C@H]2CCOC2=O)nn1)O[C@@H]6Cn1cc(CCCC(=O)N[C@H]2CCOC2=O)nn1)O[C@@H]5Cn1cc(CCCC(=O)N[C@H]2CCOC2=O)nn1)O[C@@H]4Cn1cc(CCCC(=O)N[C@H]2CCOC2=O)nn1)O[C@@H]3Cn1cc(CCCC(=O)N[C@H]2CCOC2=O)nn1 | LuxR reporter, antagonist | DH5α sensor strain | 40 µM, with: OHHL 200 nM | – | inhibition | 23%
CC[C@H](C)[C@H](NC(=O)[C@H](CC1CCCCC1)NC(=O)[C@H](Cc1ccccc1)NC(=O)[C@@H](N)CCCN)C(=O)N[C@H](Cc1ccccc1)C(=O)N[C@@H](Cc1cn(Cc2ccccc2)cn1)C(N)=O | bacterial growth | ATCC 35218 | – | – | IC50 | > 20 µg/mL
COc1c(C)c(OC(=O)c2ccccc2)c(C)c(OC(=O)c2ccccc2)c1C(=O)/C=C/c1ccccc1 | microbial growth, well diffusion | ATCC25922 | 5 µg/mL | – | inhibition zone | 9 mm
CC(CCCOC(=O)CCC[N+](C)(C)C)C1CCC2C3CCC4CC(OC(=O)CCC[N+](C)(C)C)CCC4(C)C3CCC12C (stereo not shown) | microbial growth, disc diffusion | ATCC25922 | 15.6 µg/disc, 24 h | – | inhibition zone | 11 mm
O=C(CCCc1cn(C[C@H]2O[C@@H]3O[C@H]4[C@H](O)[C@@H](O)[C@@H](O[C@H]5[C@H](O)[C@@H](O)[C@@H](O[C@H]6[C@H](O)[C@@H](O)[C@@H](O[C@H]7[C@H](O)[C@@H](O)[C@@H](O[C@H]8[C@H](O)[C@@H](O)[C@@H](O[C@H]2[C@H](O)[C@H]3O)O[C@@H]8Cn2cc(CCCC(=O)N[C@H]3CCOC3=O)nn2)O[C@@H]7Cn2cc(CCCC(=O)N[C@H]3CCOC3=O)nn2)O[C@@H]6Cn2cc(CCCC(=O)N[C@H]3CCOC3=O)nn2)O[C@@H]5Cn2cc(CCCC(=O)N[C@H]3CCOC3=O)nn2)O[C@@H]4Cn2cc(CCCC(=O)N[C@H]3CCOC3=O)nn2)nn1)N[C@H]1CCOC1=O | LuxR reporter, antagonist | DH5α sensor strain | 40 µM, with: OHHL 200 nM | – | inhibition | 8 ± 4%
CCCCCCCC(=O)Oc1c(C)c(OC)c2c(c1C)OC(=O)[C@@H](CCCCCC)[C@]2(O)/C=C/c1ccccc1 (racemic) | microbial killing, broth dilution | ATCC25922 | – | – | MBC | > 5000 µg/mL
CC(C)c1ccc2c(c1)CCC1C(C)(CN(CC(O)C[N+](C)(C)C)CC(O)C[N+](C)(C)C)CCCC21C (stereo not shown) | microbial growth, disc diffusion | ATCC25922 | 125 µg/disc, 24 h | – | inhibition zone | 8 mm
O=C(CCCc1cn(C[C@H]2O[C@@H]3O[C@H]4[C@H](O)[C@@H](O)[C@@H](O[C@H]5[C@H](O)[C@@H](O)[C@@H](O[C@H]6[C@H](O)[C@@H](O)[C@@H](O[C@H]7[C@H](O)[C@@H](O)[C@@H](O[C@H]8[C@H](O)[C@@H](O)[C@@H](O[C@H]9[C@H](O)[C@@H](O)[C@@H](O[C@H]2[C@H](O)[C@H]3O)O[C@@H]9CO)O[C@@H]8CO)O[C@@H]7CO)O[C@@H]6CO)O[C@@H]5CO)O[C@@H]4CO)nn1)N[C@H]1CCOC1=O | LuxR reporter, antagonist | DH5α sensor strain | 40 µM, with: OHHL 200 nM | – | inhibition | 7 ± 6%
CC(C)C1=CC2=CCC3C(C)(C(=O)OCCC[N+](C)(C)C)CCCC3(C)C2CC1 (stereo not shown) | microbial growth, disc diffusion | ATCC25922 | 125 µg/disc, 24 h | – | inhibition zone | 10 mm
COc1cc(Cc2cnc(N)nc2N)cc(OC)c1OC.O=c1[nH]cc(F)c(=O)[nH]1 | broth microdilution | – | 48 h | – | MBC | > 32 µg/mL
CO[C@@H]1[C@@H](OC)[C@H]2O[C@H]3[C@H](OC)[C@@H](OC)[C@@H](O[C@H]4[C@H](OC)[C@@H](OC)[C@@H](O[C@H]5[C@H](OC)[C@@H](OC)[C@@H](O[C@H]6[C@H](OC)[C@@H](OC)[C@@H](O[C@H]7[C@H](OC)[C@@H](OC)[C@@H](O[C@@H]1[C@@H](Cn1cc(CCCC(=O)N[C@H]8CCOC8=O)nn1)O2)O[C@@H]7Cn1cc(CCCC(=O)N[C@H]2CCOC2=O)nn1)O[C@@H]6Cn1cc(CCCC(=O)N[C@H]2CCOC2=O)nn1)O[C@@H]5Cn1cc(CCCC(=O)N[C@H]2CCOC2=O)nn1)O[C@@H]4Cn1cc(CCCC(=O)N[C@H]2CCOC2=O)nn1)O[C@@H]3Cn1cc(CCCC(=O)N[C@H]2CCOC2=O)nn1 | LuxR reporter, antagonist | DH5α sensor strain | 20 µM, with: OHHL 200 nM | – | inhibition | 12 ± 1%
O=c1cccccc1O | microbial growth, broth dilution | ATCC35218 | – | – | MIC80 | > 100 µM

Some of these lines once more:
Structure (SMILES) | assay | test system | conditions | scale | measurement | value
CC(C)C1=CC2=CCC3C(C)(C(=O)OCCC[N+](C)(C)C)CCCC3(C)C2CC1 (stereo not shown) | microbial growth, disc diffusion | ATCC25922 | 125 µg/disc, 24 h | – | inhibition zone | 10 mm
Cc1cc(O)c(=O)c(O)cc1C(=O)C1CC1 | microbial growth, broth dilution | ATCC35218 | – | – | MIC80 | 29.6 µM (≈ 6.52 µg/mL)
CO[C@@H]1[C@@H](OC)[C@H]2O[C@H]3[C@H](OC)[C@@H](OC)[C@@H](O[C@H]4[C@H](OC)[C@@H](OC)[C@@H](O[C@H]5[C@H](OC)[C@@H](OC)[C@@H](O[C@H]6[C@H](OC)[C@@H](OC)[C@@H](O[C@H]7[C@H](OC)[C@@H](OC)[C@@H](O[C@@H]1[C@@H](Cn1cc(CCCC(=O)N[C@H]8CCOC8=O)nn1)O2)O[C@@H]7Cn1cc(CCCC(=O)N[C@H]2CCOC2=O)nn1)O[C@@H]6Cn1cc(CCCC(=O)N[C@H]2CCOC2=O)nn1)O[C@@H]5Cn1cc(CCCC(=O)N[C@H]2CCOC2=O)nn1)O[C@@H]4Cn1cc(CCCC(=O)N[C@H]2CCOC2=O)nn1)O[C@@H]3Cn1cc(CCCC(=O)N[C@H]2CCOC2=O)nn1 | LuxR reporter, antagonist | DH5α sensor strain | 20 µM, with: OHHL 200 nM | – | inhibition | 12 ± 1%
